Assay results gathered from unrelated publications.
Lines come from different studies, so protocols differ. ± marks the error that the study gave.

Structure (SMILES) | test | test system | conditions | how to read | quantity | result
CCCCCCCCCCCCCCCC(=O)N[C@@H](CCCCN)C(=O)N[C@H](C(=O)N[C@H](C(=O)N[C@@H](CCCCN)C(=O)N[C@@H](CO)C(=O)O)[C@@H](C)O)[C@@H](C)O | – | hairless mouse, skin, Franz cell | 50 µg/cm^2 applied, 24 h | – | percent of applied dose in stratum corneum | 8.3%
Oc1ccc2ccccc2c1/N=N/c1ccccc1 | – | rat whole blood | 16.0 µg/L, freeze-thaw cycle 3 | – | freeze-thaw stability deviation | -0.7%
CC[C@H](C)[C@H](NC(=O)[C@H](CC(C)C)NC(=O)[C@H](Cc1c[nH]c2ccccc12)NC(=O)[C@H](C)NC(=O)[C@@H](NC(=O)[C@H](Cc1ccccc1)NC(=O)[C@H](CC(=O)O)NC(=O)[C@H](CCCNC(=N)N)NC(=O)[C@H](C)NC(=O)[C@H](C)NC(=O)[C@H](CC(C)C)NC(=O)[C@H](C)NC(=O)[C@H](CC(=O)O)NC(=O)[C@H](CC(C)C)NC(=O)[C@@H](NC(=O)[C@@H](NC(=O)[C@H](C)NC(=O)[C@H](CC(C)C)NC(=O)[C@H](CCC(=O)O)NC(=O)[C@H](CO)NC(=O)[C@H](CO)NC(=O)[C@H](Cc1ccccc1)NC(=O)[C@@H](NC(=O)CNC(=O)[C@H](CCC(=O)O)NC(=O)CNC(=O)[C@@H](N)Cc1c[nH]cn1)[C@@H](C)O)[C@@H](C)O)[C@@H](C)CC)[C@@H](C)CC)C(=O)N[C@@H](C)C(=O)N[C@H](C(=O)N[C@@H](CCCCN)C(=O)N[C@H](C(=O)N[C@H](C(=O)N[C@@H](CC(=O)O)C(=O)N[C@@H](CCCCN)C(=O)N[C@@H](CCCCN)C(=O)O)[C@@H](C)O)[C@@H](C)CC)[C@@H](C)O | immunoaffinity LC-MS/MS | healthy human subjects, plasma | intravenous infusion, 1 mg single dose, infused over 15 min | – | AUCinf | 1.01 nM·h
N#CCc1cccc(Cl)c1-c1ccc2[nH][11c](=O)[nH]c2c1 | – | mice, plasma | dose not given, 30 min | – | unchanged tracer fraction | 35%
[Br-].c1ccc(-c2nn(-c3nc4ccccc4s3)[n+](-c3ccccc3)n2)cc1 | chemical stability, HPLC | bovine, serum | – | – | half-life | 2 h
COc1cc2c(cc1OC)CN(CCCCn1ccc3cc(OCC[18F])ccc31)C2 | – | male ICR mice | intravenous, 2 min post-injection | – | heart uptake | 15.5 ± 1.37 %ID/g
[Ru+2].c1ccc(-c2cccc(-c3ccccn3)n2)nc1.c1ccc2nc(-c3nc4ccccc4s3)ccc2c1.c1cnccn1 | – | water | 470 nm light | – | photosubstitution quantum yield | 0.0368
CC(NCCc1nsc2ccccc12)c1cccc2c1OCO2 (stereo not shown) | – | mouse | subcutaneous, 3 mg/kg, 4 h | – | serum calcium change | no effect
CCCCN1C(=O)c2cccc3c(NCCCCCCCCCCN4CCOCC4)ccc(c23)C1=O | – | water | pH 6 | baseline: fluorescein/0.1 N NaOH | fluorescence quantum yield | 0.08
COc1cc(N(C)CCN(C)C)c(NC(=O)CCSCC(NC(C)=O)C(=O)O)cc1Nc1nccc(-c2cn(C3CC3)c3ccccc23)n1 (stereo not shown) | – | human, pooled urine | 0 to 48 h | baseline: dose | excretion in urine | 0.01%
N=C(N)NCCC[C@@H]1NC(=O)[C@H](Cc2c[nH]c3ccccc23)NC(=O)[C@@H](CC2CCCCC2)NC(=O)[C@@H]2CCCN2C(=O)[C@@H](NC(=O)CCc2ccccc2)CCCNC1=O | – | C57BL/6J mice, spinal cord | intravenous, 1 mg/kg, two-compartment model | – | elimination rate constant | 0.000406 s⁻¹
COC(=O)CN1CCN(CC(=O)OC)CCN(Cc2cc(-c3nc4ccccc4s3)cc(OC)c2O)CC1 | UV-Vis pH titration | – | 25 °C, ionic strength 0.1 M NaCl | – | pKa1 | 4.21
CC[C@H](C)[C@H](NC(=O)[C@H](C)NC(=O)[C@H](CC(N)=O)NC(=O)[C@H](CCCNC(=N)N)NC(=O)[C@H](CCCNC(=N)N)NC(=O)[C@H](CC(N)=O)NC(=O)[C@H](CCCNC(=N)N)NC(=O)[C@H](CCCNC(=N)N)NC(=O)[C@H](C)NC(=O)[C@@H](NC(=O)[C@H](CO)NC(=O)[C@@H](NC(=O)[C@@H](NC(=O)[C@H](CS)NC(=O)[C@H](CCCCN)NC(=O)[C@@H](N)CCCNC(=N)N)C(C)C)[C@@H](C)CC)C(C)C)C(=O)N[C@@H](CCCCN)C(=O)N[C@H](C(=O)N[C@@H](CC(C)C)C(=O)N[C@@H](CS)C(=O)N[C@@H](CC(N)=O)C(=O)O)[C@@H](C)CC | LC-MS | PBS | 0.1 mg/mL | – | single disulfide form | 33%
CC(C)CCCC(C)CCCC(C)CCO[C@@H]1O[C@H](CO)[C@@H](O[C@H]2O[C@H](CO)[C@@H](O)[C@H](O)[C@H]2O)[C@H](O)[C@H]1O (stereo partly shown) | dynamic surface tension | – | 0.0018 mmol/L | – | surface tension at induction time | 66.4 mN/m
Cc1ccccc1/N=N/c1ccc(/N=N/c2c(O)ccc3ccccc23)c(C)c1 | – | rat whole blood extract | 0.5 µg/L, 30 days, -20 °C, long-term storage | – | measured concentration | 0.503 µg/L
C[Si]1(C[C@@H](CN)CC(=O)O)CCCC1 | neuromuscular coordination | Wistar rat male | oral, 300 mg/kg, 2 h | – | performance time | 180 s
COc1ccc(/C=C/c2ccc(-c3ccc(C)cn3)nc2)cc1 | TCSPC | benzene | – | – | radiative decay rate constant | 0.71 ns⁻¹

Structure (SMILES) | test | test system | conditions | how to read | quantity | result
CC(C)[C@H](NC(=O)CNC(=O)[C@H](CCC(N)=O)NC(=O)[C@H](C)N)C(=O)O | LC-MS/MS | human, male, plasma | intravenous, 30 mg/kg three times daily, day 2, first dose, 10 min infusion, geometric mean | – | clearance | 900 mL/min/kg
Nc1ncnc2c1nc(-n1nnc3c1CCC1C(CO)C1CC3)n2C1OC(CO)C(O)C1O (mixture of isomers) | – | methanol | red edge of spectrum | – | second excitation maximum | 309 nm
Cc1ccc(OCC(=O)O)cc1 | – | Sprague-Dawley rat, female, plasma | oral, 30 mg/kg/day of parent drug, day 1, 90-day repeated dosing | – | Cmax | 4070 ± 922 ng/mL
CC(=O)c1cnc(N)nc1N1CC[C@H]1c1nn2ccc(Cl)c2c(=O)n1-c1ccccc1 | – | female Wistar rat | oral, 2 h, anti-IgD B cell activation | – | plasma concentration at ED50 | 48 to 134 nM
COc1cc2ncnc(Oc3ccc4c(C(N)=O)c(C)oc4c3)c2cc1OC | measured: AUC0-t | human, moderate renal impairment | oral | baseline: normal renal function | decrease in exposure | ~28%
Cc1[nH]c(/C=C2\C(=O)Nc3ccc(F)cc32)c(C)c1NC(=O)CCN1CCN(C)CC1 | – | Beagle dog, both sexes, plasma | oral, 3 mg/kg | – | AUC(0-t) | 836 ± 231 ng·h/mL
CCNC(=O)NC1CC=C(c2cc3c(Nc4cc5ncsc5cc4F)ncnc3s2)CC1 (racemic) | metabolic stability | human, liver microsomes | – | – | half-life | > 2 h
Cn1c(=O)oc2ccc(-c3ccc(CC(C#N)NC(=O)C4CNCCCO4)c(F)c3)cc21 (stereo not shown) | – | human | oral, 20 mg once daily, TEAE, multiple ascending dose | – | CPK increased incidence | 0%
C#CCOc1ccc(/C=C2\SC(=O)N(CC(=O)NCc3ccccc3)C2=O)cc1 | inverse Kirkwood-Buff integrals | binary solvent mixture | concentration not given, 298.15 K, mole fraction x1 0.30 | – | correlation volume | 2990 cm³/mol
CC(C)C[C@@H](NC(=O)[C@H](NC(=O)[C@H]1CCCN1)[C@H](C)O)C(=O)N[C@H](Cc1c[nH]cn1)C(=O)N[C@@H](C(=O)N[C@H](Cc1c[nH]cn1)C(=O)N[C@H](CC(N)=O)C(=O)N[C@H](CCCNC(=N)N)C(=O)N[C@H](CCCNC(=N)N)C(=O)N[C@H](CCCNC(=N)N)C(=O)N[C@H](CCCNC(=N)N)C(=O)N[C@H](CCCNC(=N)N)C(N)=O)[C@H](C)O | – | Beagle dog, CSF | intravenous, 3 mg/kg, single dose | – | MRT(0-inf) | 39 ± 4 h
NC(=O)CN(Cc1ccccc1)C(=O)CN(CCOc1cc(-c2ccccn2)nc(-c2ccccn2)c1)C(=O)CNCc1ccccn1 | UV-Vis | acetate buffer | 100 µM, up to 72 h, pH 4.0, 37 °C | – | chemical stability | stable
C=C(c1ccc(C(=O)O)c(F)c1)c1cc2c(cc1C)C(C)(C)C=CC2(C)C | – | Sprague-Dawley rat, male, plasma | oral, 100 mg/kg, 9 h, sesame oil vehicle | – | LDL level | 5 ± 2.5 mg/dL
CCCC(CCC)NC(=O)c1ccc(OC2OC(C(=O)O)C(O)C(O)C2O)c(OC)c1 (stereo not shown) | – | female Sprague-Dawley rats, plasma | oral, 200 mg/kg of parent drug | baseline: 200 over 20 mg/kg dose | AUC(0-last) ratio | 5.49
COC(=O)C1OC(Oc2c(-c3ccccc3)oc3cc(O)c(O)c(O)c3c2=O)C(O)C(O)C1O (stereo not shown) | – | BALB/c mouse, spleen | 1 mg/kg | – | organ weight | 0.79 ± 0.6 g
CCC(C)N(C)C(=O)c1nc(-c2cccc(C(F)(F)[18F])c2)c2ccccc2n1 (stereo not shown) | – | healthy mice, blood | intravenous, 3.7 MBq | – | beta half-life | ~1.28 h
Cc1[nH]nc2c1N=C(c1ccccc1Cl)c1cnc(N3CCOCC3)cc1N2 | – | human, feces and urine | oral, 10 mg | baseline: dose | excretion in feces and urine | 68.9%
CC(C)c1cnc(-c2cc(Cl)ccc2F)cc1Nc1ccncc1C(=O)NC(CO)CO | monotherapy, measured: headache | human patients | oral, dose not given, grade 2, phase I A | – | patients with treatment-related adverse event | 2.4%

A few entries again:
Structure (SMILES) | test | test system | conditions | how to read | quantity | result
C[Si]1(C[C@@H](CN)CC(=O)O)CCCC1 | neuromuscular coordination | Wistar rat male | oral, 300 mg/kg, 2 h | – | performance time | 180 s
[Ru+2].c1ccc(-c2cccc(-c3ccccn3)n2)nc1.c1ccc2nc(-c3nc4ccccc4s3)ccc2c1.c1cnccn1 | – | water | 470 nm light | – | photosubstitution quantum yield | 0.0368
CC(C)C[C@@H](NC(=O)[C@H](NC(=O)[C@H]1CCCN1)[C@H](C)O)C(=O)N[C@H](Cc1c[nH]cn1)C(=O)N[C@@H](C(=O)N[C@H](Cc1c[nH]cn1)C(=O)N[C@H](CC(N)=O)C(=O)N[C@H](CCCNC(=N)N)C(=O)N[C@H](CCCNC(=N)N)C(=O)N[C@H](CCCNC(=N)N)C(=O)N[C@H](CCCNC(=N)N)C(=O)N[C@H](CCCNC(=N)N)C(N)=O)[C@H](C)O | – | Beagle dog, CSF | intravenous, 3 mg/kg, single dose | – | MRT(0-inf) | 39 ± 4 h
Nc1ncnc2c1nc(-n1nnc3c1CCC1C(CO)C1CC3)n2C1OC(CO)C(O)C1O (mixture of isomers) | – | methanol | red edge of spectrum | – | second excitation maximum | 309 nm
COc1cc2c(cc1OC)CN(CCCCn1ccc3cc(OCC[18F])ccc31)C2 | – | male ICR mice | intravenous, 2 min post-injection | – | heart uptake | 15.5 ± 1.37 %ID/g
